Experimental data from different studies.
Every numbered part comes from another study and shows a few of its results, in no order.
Sequence of UniProt P45985 (whole entry, looked up): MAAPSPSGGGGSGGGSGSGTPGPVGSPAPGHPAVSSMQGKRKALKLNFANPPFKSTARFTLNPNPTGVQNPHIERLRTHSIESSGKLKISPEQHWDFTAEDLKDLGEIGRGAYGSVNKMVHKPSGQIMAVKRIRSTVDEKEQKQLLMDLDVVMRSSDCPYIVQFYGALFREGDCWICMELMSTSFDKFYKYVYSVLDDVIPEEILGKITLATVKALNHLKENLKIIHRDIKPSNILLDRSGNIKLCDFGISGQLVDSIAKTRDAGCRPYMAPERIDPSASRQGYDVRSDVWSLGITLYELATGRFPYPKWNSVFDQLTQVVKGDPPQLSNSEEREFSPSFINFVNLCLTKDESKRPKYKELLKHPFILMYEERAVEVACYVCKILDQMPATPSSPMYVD
Sequence of UniProt Q14680 (whole entry, looked up): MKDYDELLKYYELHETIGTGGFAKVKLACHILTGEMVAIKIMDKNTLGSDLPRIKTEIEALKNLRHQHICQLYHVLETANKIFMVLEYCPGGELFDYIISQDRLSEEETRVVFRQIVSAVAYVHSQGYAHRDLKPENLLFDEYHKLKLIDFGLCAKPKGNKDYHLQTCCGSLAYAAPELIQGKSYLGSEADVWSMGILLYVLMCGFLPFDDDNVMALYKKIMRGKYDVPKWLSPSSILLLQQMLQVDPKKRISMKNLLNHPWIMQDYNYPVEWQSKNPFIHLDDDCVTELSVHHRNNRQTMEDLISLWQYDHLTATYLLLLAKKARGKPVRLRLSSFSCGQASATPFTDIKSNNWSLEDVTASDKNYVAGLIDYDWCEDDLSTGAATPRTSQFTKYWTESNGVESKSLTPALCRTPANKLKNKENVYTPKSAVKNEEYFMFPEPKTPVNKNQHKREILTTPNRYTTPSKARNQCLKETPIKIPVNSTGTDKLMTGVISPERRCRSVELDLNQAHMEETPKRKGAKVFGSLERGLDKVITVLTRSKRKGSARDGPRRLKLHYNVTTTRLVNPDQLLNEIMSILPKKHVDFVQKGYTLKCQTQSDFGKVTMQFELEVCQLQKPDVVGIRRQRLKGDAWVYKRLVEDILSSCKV
Sequence of UniProt Q56UN5 (whole entry, looked up): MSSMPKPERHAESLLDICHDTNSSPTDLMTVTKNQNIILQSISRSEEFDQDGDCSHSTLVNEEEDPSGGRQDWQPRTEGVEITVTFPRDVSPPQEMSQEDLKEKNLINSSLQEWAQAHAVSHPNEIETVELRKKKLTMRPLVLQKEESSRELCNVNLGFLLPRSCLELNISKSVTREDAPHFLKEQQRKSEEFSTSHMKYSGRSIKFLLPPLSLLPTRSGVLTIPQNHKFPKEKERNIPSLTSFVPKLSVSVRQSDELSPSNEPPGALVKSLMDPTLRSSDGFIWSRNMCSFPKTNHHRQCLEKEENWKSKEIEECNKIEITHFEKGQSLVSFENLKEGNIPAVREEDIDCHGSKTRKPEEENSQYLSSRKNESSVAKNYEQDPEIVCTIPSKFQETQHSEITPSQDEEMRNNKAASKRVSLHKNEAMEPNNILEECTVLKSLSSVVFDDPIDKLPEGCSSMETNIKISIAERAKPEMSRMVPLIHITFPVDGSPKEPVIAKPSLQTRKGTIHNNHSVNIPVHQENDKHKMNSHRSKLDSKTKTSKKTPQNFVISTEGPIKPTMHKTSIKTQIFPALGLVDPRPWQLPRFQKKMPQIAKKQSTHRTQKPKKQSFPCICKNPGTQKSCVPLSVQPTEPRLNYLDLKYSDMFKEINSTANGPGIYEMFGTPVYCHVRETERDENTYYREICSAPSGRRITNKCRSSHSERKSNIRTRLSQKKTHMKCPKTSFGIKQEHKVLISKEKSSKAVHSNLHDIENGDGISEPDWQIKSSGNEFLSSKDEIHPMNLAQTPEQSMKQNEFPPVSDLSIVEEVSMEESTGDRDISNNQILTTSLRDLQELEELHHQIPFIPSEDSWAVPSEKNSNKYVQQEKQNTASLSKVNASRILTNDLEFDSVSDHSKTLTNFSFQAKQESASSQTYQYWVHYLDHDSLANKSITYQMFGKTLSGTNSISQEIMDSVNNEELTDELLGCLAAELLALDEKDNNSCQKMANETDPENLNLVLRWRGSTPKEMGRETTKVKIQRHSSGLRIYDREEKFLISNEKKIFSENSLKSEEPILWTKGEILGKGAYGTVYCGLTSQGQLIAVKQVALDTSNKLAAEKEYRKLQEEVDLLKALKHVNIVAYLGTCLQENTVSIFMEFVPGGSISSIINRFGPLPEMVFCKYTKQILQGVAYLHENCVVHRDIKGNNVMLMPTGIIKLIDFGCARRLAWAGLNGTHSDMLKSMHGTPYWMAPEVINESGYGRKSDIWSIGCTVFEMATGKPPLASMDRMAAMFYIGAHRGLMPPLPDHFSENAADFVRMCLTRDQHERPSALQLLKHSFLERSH
Sequence of UniProt O15111 (whole entry, looked up): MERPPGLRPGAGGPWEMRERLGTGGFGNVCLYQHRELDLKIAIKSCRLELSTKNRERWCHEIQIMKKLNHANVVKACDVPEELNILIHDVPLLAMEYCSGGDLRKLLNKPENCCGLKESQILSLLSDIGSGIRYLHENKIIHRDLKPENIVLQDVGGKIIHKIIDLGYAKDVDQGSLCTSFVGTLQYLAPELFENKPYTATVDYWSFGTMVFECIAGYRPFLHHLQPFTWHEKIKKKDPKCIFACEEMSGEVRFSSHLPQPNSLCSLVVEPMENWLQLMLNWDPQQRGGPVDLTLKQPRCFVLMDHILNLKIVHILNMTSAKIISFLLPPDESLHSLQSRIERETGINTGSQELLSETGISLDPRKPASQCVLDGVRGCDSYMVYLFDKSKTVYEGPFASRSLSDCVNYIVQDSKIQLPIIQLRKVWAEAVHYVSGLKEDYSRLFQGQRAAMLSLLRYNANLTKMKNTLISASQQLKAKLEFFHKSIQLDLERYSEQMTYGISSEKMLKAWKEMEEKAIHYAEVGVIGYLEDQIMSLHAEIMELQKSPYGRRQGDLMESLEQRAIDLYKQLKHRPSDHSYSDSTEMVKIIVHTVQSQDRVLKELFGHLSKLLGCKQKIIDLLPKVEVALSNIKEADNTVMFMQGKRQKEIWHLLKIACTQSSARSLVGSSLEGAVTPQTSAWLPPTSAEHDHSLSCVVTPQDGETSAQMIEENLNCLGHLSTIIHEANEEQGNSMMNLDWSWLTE
Sequence of UniProt Q9BWU1 (whole entry, looked up): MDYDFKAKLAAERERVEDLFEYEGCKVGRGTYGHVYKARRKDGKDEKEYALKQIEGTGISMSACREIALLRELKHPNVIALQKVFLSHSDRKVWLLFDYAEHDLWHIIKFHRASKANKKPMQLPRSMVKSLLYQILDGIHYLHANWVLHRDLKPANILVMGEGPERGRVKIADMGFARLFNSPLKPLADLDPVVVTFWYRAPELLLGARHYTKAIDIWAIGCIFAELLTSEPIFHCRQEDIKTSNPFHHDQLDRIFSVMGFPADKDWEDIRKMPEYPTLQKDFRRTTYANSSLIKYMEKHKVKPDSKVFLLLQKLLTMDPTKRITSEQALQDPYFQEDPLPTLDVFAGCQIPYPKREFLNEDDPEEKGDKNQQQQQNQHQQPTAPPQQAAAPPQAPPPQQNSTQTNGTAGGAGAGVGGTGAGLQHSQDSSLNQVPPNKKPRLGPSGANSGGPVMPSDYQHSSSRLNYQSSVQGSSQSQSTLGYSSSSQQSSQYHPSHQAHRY
Sequence of UniProt Q86YV6 (whole entry, looked up): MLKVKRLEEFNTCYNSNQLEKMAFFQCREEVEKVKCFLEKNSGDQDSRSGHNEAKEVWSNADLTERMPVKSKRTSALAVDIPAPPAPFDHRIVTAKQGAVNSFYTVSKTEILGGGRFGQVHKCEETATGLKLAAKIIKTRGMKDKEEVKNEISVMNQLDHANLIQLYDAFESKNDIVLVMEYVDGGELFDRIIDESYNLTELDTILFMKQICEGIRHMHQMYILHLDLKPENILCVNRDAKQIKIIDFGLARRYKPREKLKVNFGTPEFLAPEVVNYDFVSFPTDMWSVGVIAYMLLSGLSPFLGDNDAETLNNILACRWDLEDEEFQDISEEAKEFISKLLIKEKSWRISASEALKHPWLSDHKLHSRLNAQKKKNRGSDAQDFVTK
Sequence of UniProt O00238 (whole entry, looked up): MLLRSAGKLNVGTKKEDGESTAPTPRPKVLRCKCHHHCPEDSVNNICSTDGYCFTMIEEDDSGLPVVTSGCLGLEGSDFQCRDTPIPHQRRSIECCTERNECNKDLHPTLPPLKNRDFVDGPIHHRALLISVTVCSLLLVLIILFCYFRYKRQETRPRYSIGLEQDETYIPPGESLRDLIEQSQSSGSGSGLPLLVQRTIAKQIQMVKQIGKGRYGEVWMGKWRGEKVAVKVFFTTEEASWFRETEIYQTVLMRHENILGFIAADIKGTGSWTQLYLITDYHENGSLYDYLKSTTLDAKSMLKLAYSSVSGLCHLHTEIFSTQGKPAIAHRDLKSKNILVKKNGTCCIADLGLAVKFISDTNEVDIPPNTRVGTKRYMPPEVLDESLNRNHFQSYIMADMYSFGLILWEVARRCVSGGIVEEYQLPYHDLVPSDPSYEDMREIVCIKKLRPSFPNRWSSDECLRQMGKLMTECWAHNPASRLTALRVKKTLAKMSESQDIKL

Sample 1
Cell line: A-375
Concentration: 100 µM
Time: 18 h
Measurement: viability
CNCc1cc(-c2ccccc2F)n(S(=O)(=O)c2cccnc2)c1: 97.5%
C[C@H](CCC(=O)O)[C@H]1CC[C@H]2[C@@H]3CC[C@@H]4C[C@H](O)CC[C@]4(C)[C@H]3C[C@H](O)[C@]12C: 96.9%
Nc1nc(O)c2ncn(COC(CO)CO)c2n1: 98.1%
O=C(CCCN1CC=C(n2c(=O)[nH]c3ccccc32)CC1)c1ccc(F)cc1: 57.1%
CC(=O)[C@@]1(O)CC[C@H]2[C@@H]3C[C@H](C)C4=CC(=O)C=C[C@]4(C)[C@@]3(F)[C@@H](O)C[C@@]21C: 68.9%
O=C(O)CCNC(=O)c1ccccc1: 91.1%

Sample 2
SMILES: CC(C)n1cnc(-c2ccc(F)cc2)c1-c1ncc(C(=O)Nc2ccc(N3CCN(C)CC3)cc2)[nH]1
Technique: phase 2a trial
Host: idiopathic pulmonary fibrosis patients
Measurement: adverse event incidence
refers to: immunoglobulins increased; 60 mg once daily, grade 4: 0%
refers to: allergic conjunctivitis; 60 mg once daily, grade 3: 0%
refers to: immunoglobulins increased; dose not given, grade 2, all arms pooled: 0%
refers to: general and administration site disorders; 30 mg once daily, grade 4: 0%

Sample 3
Structure (SMILES): Cn1nc(C(F)(F)F)cc1-c1cnc(N2CCc3cc(S(=O)(=O)Nc4c(F)cc(Cl)cc4F)cc(N4CCCC4=O)c32)nc1
Concentration: 1 µM
Measurement: remaining binding
BMPR1B (Homo sapiens, UniProt O00238); cell-free assay, competition with immobilised ligand: 83%
STK36 (Homo sapiens, UniProt Q9NRP7); cell-free assay, competition with immobilised ligand: 100%
EGFR (Homo sapiens, UniProt P00533, L858R); cell-free assay, competition with immobilised ligand: 100%
FLT3 (Homo sapiens, UniProt P36888, D835V/ITD); cell-free assay, competition with immobilised ligand: 82%
LIM domain kinase 2 (LIMK2, Homo sapiens, UniProt P53671); cell-free assay, competition with immobilised ligand: 100%
MYLK4 (Homo sapiens, UniProt Q86YV6); cell-free assay, competition with immobilised ligand: 99%
CDK19 (Homo sapiens, UniProt Q9BWU1); competition binding: 100%
EPHA8 (Homo sapiens, UniProt P29322); cell-free assay, competition with immobilised ligand: 65%
MAP3K19 (Homo sapiens, UniProt Q56UN5); cell-free assay, competition with immobilised ligand: 82%
MET (Homo sapiens, UniProt P08581, Y1235D); cell-free assay, competition with immobilised ligand: 94%
MAP2K4 (Homo sapiens, UniProt P45985); cell-free assay, competition with immobilised ligand: 88%
CHUK (Homo sapiens, UniProt O15111); cell-free assay, competition with immobilised ligand: 99%
WEE1 (Homo sapiens, UniProt P30291); cell-free assay, competition with immobilised ligand: 88%
MELK (Homo sapiens, UniProt Q14680); cell-free assay, competition with immobilised ligand: 100%
BMP2K (Homo sapiens, UniProt Q9NSY1); cell-free assay, competition with immobilised ligand: 92%

Sample 4
Host: mouse
Medium: microsomes or S9
Concentration: 2 µM
Time: 0.5 h
Measurement: remaining compound
COC(=O)N1CC(C)CN(c2ccc(NC(=O)Nc3cc(C)ccc3OC)cc2)S1(=O)=O (stereo not drawn): 9.76%
CC(C)NC(=O)Nc1ccc(O)c(-c2nc(-c3nnc[nH]3)no2)c1: > 99%
CCCS(=O)(=O)N1CCC(Oc2nccnc2N2CCOCC2)C1 (stereo not drawn): 41.6%
COC(=O)CCCn1c(C(=O)c2ccccc2)c(C(C)C)c(=O)[nH]c1=O: 20.5%
NC(=O)c1ccccc1NC(=O)Cc1ccccc1C(=O)O: 93.1%
N=c1n(CCN2CCCCC2)c2ccccc2n1CC(O)COc1ccccc1 (stereo not drawn): 0.0359%

Further values, each from its own experiment
Target: Beta-1 adrenergic receptor (ADRB1, Homo sapiens, UniProt P08588)
Sequence of UniProt P08588 (whole entry, looked up): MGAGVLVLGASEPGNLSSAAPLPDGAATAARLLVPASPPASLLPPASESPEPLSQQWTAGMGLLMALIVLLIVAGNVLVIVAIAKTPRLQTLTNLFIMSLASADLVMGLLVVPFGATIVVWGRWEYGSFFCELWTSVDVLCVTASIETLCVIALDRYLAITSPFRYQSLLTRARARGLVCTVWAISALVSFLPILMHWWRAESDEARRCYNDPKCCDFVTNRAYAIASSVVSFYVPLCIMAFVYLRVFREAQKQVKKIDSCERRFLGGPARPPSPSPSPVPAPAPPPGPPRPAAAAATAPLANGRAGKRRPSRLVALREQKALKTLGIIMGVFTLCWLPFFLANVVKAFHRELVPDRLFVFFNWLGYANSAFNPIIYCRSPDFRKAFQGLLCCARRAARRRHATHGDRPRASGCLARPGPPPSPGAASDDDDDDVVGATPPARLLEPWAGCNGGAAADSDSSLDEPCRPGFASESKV
Cell line: cells
c1nc2nc(Nc3ccc(N4CCOCC4)cc3)nc(NC3CCCCC3)c2[nH]1 — EC50: ≥ 100 µM
Cc1c(-c2c(-c3ccc(F)o3)sc3ncnc(O[C@@H](Cc4ccccc4OCc4ccnn4CC(F)(F)F)C(=O)O)c23)ccc(OCCN2CCN(C)CC2)c1Cl — EC50: ≥ 100 µM
